Published values from different studies.
Compare with care: the assays were run in different laboratories. Values joined by “and” are separate records of one study, mostly repeats; a detail may differ. Numbers after ± are the reported error.

Molecule | target or system | assay | system | conditions | scale | endpoint | result
colistin | Acinetobacter baumannii | – | clinical strain 1E4 | – | – | MIC | > 32 µg/mL
Peginesatide | UT7/EPO | phosphorylation, agonist, refers to: phospho-GSK-3β | – | 10 min | – | EC50 | 0.745 nM
GLLEWVSQV | Jurkat T cells expressing 1G4 TCR | NFAT-eGFP reporter, fluorescence microscopy | peptide | concentration not given, HLA-A*02:01 NY-ESO system | – | reporter activation | 0.0119%
Polymyxin B | Escherichia coli | – | ATCC 25922 | 125 µg per disc, 24 h, 37 °C | – | inhibition zone diameter | 18 mm
milbemycin oxime | Saccharomyces cerevisiae | cell growth | Pdr5 deleted, Cdr1 overexpressed | 2^-2.966 µg/mL | – | OD600 | 1 and 0.962 and 0.994
gentamicin | Escherichia coli | time-kill | – | 1 x MIC, 15 min | – | viable count | 5.77 log CFU/mL
LVHYTHCGSLGV | Epstein-Barr virus | BamHI-W qPCR | peptide, B-NDG humanized mouse, EBV-infected, peripheral blood | 20 mg/kg, day 0 | – | EBV DNA copy number | 0 copies
colistin | Escherichia coli | tetracycline activity | tetracycline-resistant | 0.0625 µM, added: tetracycline | reference: tetracycline alone | fold enhancement | 16 fold
CTCAATCTCT | Salmonella enterica Typhimurium | RNA-seq, refers to: SL1344_3728 transcript | peptide, SL1344 | 5 µM, 15 min | reference: untreated control | log2 fold change | 1.88
GLAQWMARA | Jurkat T cells expressing 1G4 TCR | NFAT-eGFP reporter, flow cytometry | peptide | concentration not given, HLA-A*02:01 NY-ESO system | – | reporter activation | 0.24%
KDECVIATEV | human MAGI1-3/6 PDZ construct (MBP fusion) | automated holdup | peptide, crude extract | concentration not given, corrected by standard peak, unit not given | reference: biotin control resin, higher = stronger binding | binding intensity | 0.000699
DAPT | Enterococcus faecium | – | ATCC 27270 | – | – | MIC | 1.5 µg/mL
GCCATGCTTT (PNA, CPP-conjugated) | Salmonella enterica Typhimurium | RT-qPCR, refers to: mrcB | peptide, SL1344 | concentration not given, 30 min, sublethal dose | reference: mock | mRNA level reduction | 37%
GWTLNSAGYLLGPHAVGNHRSFSDKNGLTS | Aplysia californica | receptor activation, agonist, IP1 accumulation | peptide, CHO-K1 cells transfected with Gα16 | up to 100 µM | – | activity | inactive
maraviroc | HIV-1 ADA | viral replication, qPCR | HIV-infected mice, brain | ip, 120 mg/kg twice daily, 3 weeks post-infection, normalized to CD45+ cells | reference: untreated HIV-infected mice | HIV-1 tat decrease | 81.7 fold
Triton X-100 | Escherichia coli | checkerboard | tetracycline-resistant (pBR322) | 20 µM, added: tetracycline | – | tetracycline MIC | 450 ± 100 µM
CTCATACAGT | Salmonella enterica Typhimurium | RNA-seq, refers to: pagN | peptide, SL1344 | 5 µM, 15 min | reference: water | log2 fold change | 2.56
Polymyxin B | Staphylococcus aureus | – | CMCC 26003 | concentration not given | – | glutathione peroxidase activity | 3.89 U/mg and 4.25 U/mg and 4.47 U/mg
CAGATACTCT | Salmonella enterica Typhimurium | RNA-seq, refers to: fadL mRNA | peptide, SL1344 | 5 µM, 15 min | reference: water control | log2 fold change | -1.32
polymyxin B | Escherichia coli | XTT, preformed biofilm | ATCC BAA-2452 | 2 × MIC, 24 h | – | biofilm mass reduction | 65%
CTCATACTGA | Salmonella enterica Typhimurium | RNA-seq, refers to: udg mRNA | peptide, SL1344 | 5 µM, 15 min | reference: water control | log2 fold change | 2.31
KPGKGSETVV | human MAGI1-3/6 PDZ construct (MBP fusion) | automated holdup | peptide, purified PDZ protein | concentration not given, unit not given | reference: biotin control resin, higher = stronger binding | binding intensity | 0.0381
CTCATTGTCT | Salmonella enterica Typhimurium | broth microdilution | peptide, SL1344 | range over 0.3-10 µM, 24 h, 37 °C, Mueller-Hinton broth | – | MIC | > 10 µM
Polymyxin B | Escherichia coli | – | ATCC 25922 | concentration not given, added: KCl 4.5 mM | reference: no added salt | MIC fold change | 2 fold
TCACTATCTC | Salmonella enterica Typhimurium | RNA-seq, refers to: pagN | peptide, SL1344 | 5 µM, 15 min | reference: water | log2 fold change | 1.94
colistin | Enterobacter cloacae | broth microdilution | clinical isolate RKI-No_76/15 | – | – | MIC | ≤ 0.5 µg/mL
CTCTAACTCT | Salmonella enterica Typhimurium | RNA-seq, refers to: SL1344_3728 transcript | peptide, SL1344 | 5 µM, 15 min | reference: untreated control | log2 fold change | 1.65
epoetin alfa | UT7/EPO | phosphorylation, agonist, refers to: phospho-STAT5 | – | 10 min | – | EC50 | 0.009 nM

For quick reference, copied from above:
Molecule | target or system | assay | system | conditions | scale | endpoint | result
Polymyxin B | Staphylococcus aureus | – | CMCC 26003 | concentration not given | – | glutathione peroxidase activity | 3.89 U/mg and 4.25 U/mg and 4.47 U/mg
CTCATACTGA | Salmonella enterica Typhimurium | RNA-seq, refers to: udg mRNA | peptide, SL1344 | 5 µM, 15 min | reference: water control | log2 fold change | 2.31
